Measurements pooled from the literature.
A part holds a random share of what one study measured. Several values in a cell are separate wells, animals, samples, runs or records. Substitutions count along the parent as printed.
Chain of UniProt P61077 (whole entry, looked up): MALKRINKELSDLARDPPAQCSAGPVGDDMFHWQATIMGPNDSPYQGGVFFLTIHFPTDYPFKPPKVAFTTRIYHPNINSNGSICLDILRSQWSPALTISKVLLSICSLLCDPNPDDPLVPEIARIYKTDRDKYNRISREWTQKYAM
Chain of UniProt Q96B02 (whole entry, looked up): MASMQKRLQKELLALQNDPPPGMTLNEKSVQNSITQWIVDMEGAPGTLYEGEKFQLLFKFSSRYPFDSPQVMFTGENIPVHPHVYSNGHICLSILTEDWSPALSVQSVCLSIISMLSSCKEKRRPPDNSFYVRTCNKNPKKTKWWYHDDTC
Chain of UniProt P49459 (whole entry, looked up): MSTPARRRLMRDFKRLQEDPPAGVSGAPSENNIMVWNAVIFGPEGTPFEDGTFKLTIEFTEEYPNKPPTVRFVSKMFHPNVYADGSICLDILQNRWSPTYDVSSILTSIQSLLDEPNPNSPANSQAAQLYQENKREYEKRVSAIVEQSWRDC
Chain of UniProt P51812 (whole entry, looked up): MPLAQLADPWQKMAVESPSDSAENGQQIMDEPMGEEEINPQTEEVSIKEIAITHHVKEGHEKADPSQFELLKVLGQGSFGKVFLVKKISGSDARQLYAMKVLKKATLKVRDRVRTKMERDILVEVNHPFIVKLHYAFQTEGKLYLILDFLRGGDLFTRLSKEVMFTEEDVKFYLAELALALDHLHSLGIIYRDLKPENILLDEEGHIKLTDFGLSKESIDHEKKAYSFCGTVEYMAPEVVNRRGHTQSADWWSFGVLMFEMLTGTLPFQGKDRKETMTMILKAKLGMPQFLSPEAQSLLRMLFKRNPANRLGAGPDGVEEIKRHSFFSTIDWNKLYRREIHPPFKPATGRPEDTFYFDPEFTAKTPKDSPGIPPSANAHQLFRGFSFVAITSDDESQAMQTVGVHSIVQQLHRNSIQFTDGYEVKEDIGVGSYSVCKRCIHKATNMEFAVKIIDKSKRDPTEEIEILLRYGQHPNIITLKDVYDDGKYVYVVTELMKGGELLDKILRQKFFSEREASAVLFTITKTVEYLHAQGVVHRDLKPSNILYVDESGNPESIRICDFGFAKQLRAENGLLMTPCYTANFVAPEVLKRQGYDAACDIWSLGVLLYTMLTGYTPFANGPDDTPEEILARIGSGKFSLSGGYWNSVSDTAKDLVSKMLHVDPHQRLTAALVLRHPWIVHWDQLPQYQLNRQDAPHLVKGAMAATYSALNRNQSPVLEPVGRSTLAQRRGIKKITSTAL

Block 1
Target: CCNE1, cyclin fold, Cln2 fusion (human)
Method: yeast growth competition, sequencing
Medium: yeast
Setting: strong parent motif
Relative to: not given
Reading: higher = stronger binding
Starting sequence: viral docking peptide; KGVKRKLFAEDSS
Substitution	normalised enrichment score
KGVKRKGFAEDSS [L7G]	0.365
KGVKRKLFAEDIS [S12I]	7.57
KGVKRKLFAEDAS [S12A]	7.62
KGVKRKLFAEDDS [S12D]	7.42
KGVKRKLFIEDSS [A9I]	7.66
KGVKRKLFFEDSS [A9F]	6.84
KKVKRKLFAEDSS [G2K]	7.52
KGVKGKLFAEDSS [R5G]	0.0174

Block 2
Target: HLA class I histocompatibility antigen, A alpha chain, allele A*69:01 (Homo sapiens, UniProt P04439)
Read-out: peptide-MHC binding
Form: peptide
Concentration: concentration not given
Sequence	binding
FLGKIWPS	inactive
DAAAPLPPV	active
FLGRIWPS	inactive

Block 3
Sequence: ANYISAHTKDCPKCNICIEKNGGCNHMQCSKCKHDFCWMCLGDWKTHGSE (ARIH2 RING domain (UniProt O95376))
Method: yeast two-hybrid
Form: peptide
Medium: yeast
Setting: mostly zero background
Relative to: not given
Reading: higher = stronger interaction
target	lacZ reporter activity
UBE2A UBC core domain (UniProt P49459)	0
UBE2W UBC core domain (UniProt Q96B02)	0
UBE2D3 UBC core domain (UniProt P61077)	0

Single results of other studies
SMILES	tested on	assay	system	setting	how to read	quantity	value
CC(C)S(=O)(=O)c1ccc2nccc(Nc3ccc4sc(C5CCCC5)nc4c3)c2c1.Cl	L929 RIPK3-/- reexpressing RIPK3 K51A	CCK-8	–	50 µM	–	survival	68.7% and 67.1% and 71.3% and 76.9%
CN[C@@H]1C[C@H]2O[C@@](C)([C@@H]1OC)n1c3ccccc3c3c4c(c5c6ccccc6n2c5c31)C(=O)NC4	RPS6KA3 (Homo sapiens, UniProt P51812)	enzyme activity, inhibitor	–	0.5 µM	relative to: control	remaining activity	-1.27%
[N-]=[N+]=CC(=O)CC[C@H](N)C(=O)O	–	–	C57BL/6 CES1-/- mouse, both sexes	intravenous, 1 mg/kg, day 10	–	body weight	96% and 93% and 92% and 100% and 95%

For quick reference, copied from above (block 2):
Sequence	binding
DAAAPLPPV	active
FLGRIWPS	inactive
